Assay results of several laboratories.
“And” joins repeats or separate records; there may be more than shown. ± marks the error that the study gave.
OPRK1: Kappa-type opioid receptor (OPRK1, Homo sapiens, UniProt P41145)
Sequence of UniProt Q6DWJ6 (whole entry, looked up): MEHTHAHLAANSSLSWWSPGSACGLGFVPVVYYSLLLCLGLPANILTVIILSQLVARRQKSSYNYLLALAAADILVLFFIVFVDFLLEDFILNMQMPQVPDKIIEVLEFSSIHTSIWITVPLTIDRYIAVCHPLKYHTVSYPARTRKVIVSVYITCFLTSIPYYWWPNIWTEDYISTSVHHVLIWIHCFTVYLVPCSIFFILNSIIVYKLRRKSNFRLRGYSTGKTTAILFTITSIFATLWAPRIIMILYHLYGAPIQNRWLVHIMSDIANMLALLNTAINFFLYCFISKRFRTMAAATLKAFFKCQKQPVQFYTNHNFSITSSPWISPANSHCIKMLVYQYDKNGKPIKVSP
Sequence of UniProt Q9Y2J8 (whole entry, looked up): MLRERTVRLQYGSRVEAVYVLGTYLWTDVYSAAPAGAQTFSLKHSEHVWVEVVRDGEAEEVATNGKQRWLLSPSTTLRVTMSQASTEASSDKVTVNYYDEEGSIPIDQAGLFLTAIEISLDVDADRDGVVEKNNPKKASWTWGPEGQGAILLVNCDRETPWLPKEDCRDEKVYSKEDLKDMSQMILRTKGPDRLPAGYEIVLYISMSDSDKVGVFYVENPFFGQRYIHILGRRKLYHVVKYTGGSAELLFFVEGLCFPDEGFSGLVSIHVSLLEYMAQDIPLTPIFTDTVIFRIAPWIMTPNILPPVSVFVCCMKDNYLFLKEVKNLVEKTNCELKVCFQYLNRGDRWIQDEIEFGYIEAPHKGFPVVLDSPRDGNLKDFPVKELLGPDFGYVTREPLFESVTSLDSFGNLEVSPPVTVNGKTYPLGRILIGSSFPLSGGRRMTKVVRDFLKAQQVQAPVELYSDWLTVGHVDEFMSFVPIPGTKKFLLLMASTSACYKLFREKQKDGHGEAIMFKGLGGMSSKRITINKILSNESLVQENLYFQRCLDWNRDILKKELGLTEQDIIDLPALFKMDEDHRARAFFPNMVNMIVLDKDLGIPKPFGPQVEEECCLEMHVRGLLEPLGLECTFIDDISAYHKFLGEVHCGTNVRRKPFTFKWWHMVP
Sequence of UniProt P41145 (whole entry, looked up): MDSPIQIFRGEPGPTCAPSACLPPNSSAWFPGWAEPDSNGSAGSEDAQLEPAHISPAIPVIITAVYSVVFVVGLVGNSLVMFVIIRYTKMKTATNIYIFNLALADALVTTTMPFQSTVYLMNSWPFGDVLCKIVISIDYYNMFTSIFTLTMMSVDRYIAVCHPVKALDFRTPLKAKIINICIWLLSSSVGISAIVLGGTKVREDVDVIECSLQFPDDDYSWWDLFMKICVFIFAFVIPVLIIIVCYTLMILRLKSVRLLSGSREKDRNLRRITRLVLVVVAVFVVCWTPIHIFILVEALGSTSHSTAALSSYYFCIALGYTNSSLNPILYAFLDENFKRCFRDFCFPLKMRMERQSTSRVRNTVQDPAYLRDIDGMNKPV
Sequence of UniProt Q4JIM5 (whole entry, looked up): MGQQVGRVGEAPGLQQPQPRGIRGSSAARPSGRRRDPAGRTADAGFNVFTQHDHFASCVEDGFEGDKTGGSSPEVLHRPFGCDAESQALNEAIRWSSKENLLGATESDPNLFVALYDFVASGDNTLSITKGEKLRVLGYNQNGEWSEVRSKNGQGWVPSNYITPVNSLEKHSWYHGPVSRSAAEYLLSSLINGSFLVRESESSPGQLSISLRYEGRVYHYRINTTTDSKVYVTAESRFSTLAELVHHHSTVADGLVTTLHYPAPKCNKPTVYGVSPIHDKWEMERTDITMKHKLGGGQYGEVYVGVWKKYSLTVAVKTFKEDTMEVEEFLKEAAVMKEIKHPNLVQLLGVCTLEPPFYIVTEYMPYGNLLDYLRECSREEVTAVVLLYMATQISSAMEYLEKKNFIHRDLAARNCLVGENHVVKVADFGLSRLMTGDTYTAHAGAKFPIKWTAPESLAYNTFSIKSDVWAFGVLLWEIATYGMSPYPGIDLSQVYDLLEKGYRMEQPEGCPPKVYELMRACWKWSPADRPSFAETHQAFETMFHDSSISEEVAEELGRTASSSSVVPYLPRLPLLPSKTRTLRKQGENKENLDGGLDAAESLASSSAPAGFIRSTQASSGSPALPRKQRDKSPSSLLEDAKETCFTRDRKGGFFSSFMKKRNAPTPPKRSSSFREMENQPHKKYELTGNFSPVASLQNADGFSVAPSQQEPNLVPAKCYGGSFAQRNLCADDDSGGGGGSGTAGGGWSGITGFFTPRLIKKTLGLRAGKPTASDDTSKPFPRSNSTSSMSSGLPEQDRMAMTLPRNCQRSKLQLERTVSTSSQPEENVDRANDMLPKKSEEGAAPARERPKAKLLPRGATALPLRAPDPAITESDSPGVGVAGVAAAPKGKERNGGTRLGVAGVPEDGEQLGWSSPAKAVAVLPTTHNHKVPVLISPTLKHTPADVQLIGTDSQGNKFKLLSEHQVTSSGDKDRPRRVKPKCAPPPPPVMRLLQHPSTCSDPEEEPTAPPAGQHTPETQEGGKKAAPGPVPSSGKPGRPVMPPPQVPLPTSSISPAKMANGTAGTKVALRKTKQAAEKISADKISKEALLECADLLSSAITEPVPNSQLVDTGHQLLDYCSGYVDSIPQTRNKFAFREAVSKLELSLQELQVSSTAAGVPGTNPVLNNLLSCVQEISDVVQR
Sequence of UniProt Q9UBS5 (whole entry, looked up): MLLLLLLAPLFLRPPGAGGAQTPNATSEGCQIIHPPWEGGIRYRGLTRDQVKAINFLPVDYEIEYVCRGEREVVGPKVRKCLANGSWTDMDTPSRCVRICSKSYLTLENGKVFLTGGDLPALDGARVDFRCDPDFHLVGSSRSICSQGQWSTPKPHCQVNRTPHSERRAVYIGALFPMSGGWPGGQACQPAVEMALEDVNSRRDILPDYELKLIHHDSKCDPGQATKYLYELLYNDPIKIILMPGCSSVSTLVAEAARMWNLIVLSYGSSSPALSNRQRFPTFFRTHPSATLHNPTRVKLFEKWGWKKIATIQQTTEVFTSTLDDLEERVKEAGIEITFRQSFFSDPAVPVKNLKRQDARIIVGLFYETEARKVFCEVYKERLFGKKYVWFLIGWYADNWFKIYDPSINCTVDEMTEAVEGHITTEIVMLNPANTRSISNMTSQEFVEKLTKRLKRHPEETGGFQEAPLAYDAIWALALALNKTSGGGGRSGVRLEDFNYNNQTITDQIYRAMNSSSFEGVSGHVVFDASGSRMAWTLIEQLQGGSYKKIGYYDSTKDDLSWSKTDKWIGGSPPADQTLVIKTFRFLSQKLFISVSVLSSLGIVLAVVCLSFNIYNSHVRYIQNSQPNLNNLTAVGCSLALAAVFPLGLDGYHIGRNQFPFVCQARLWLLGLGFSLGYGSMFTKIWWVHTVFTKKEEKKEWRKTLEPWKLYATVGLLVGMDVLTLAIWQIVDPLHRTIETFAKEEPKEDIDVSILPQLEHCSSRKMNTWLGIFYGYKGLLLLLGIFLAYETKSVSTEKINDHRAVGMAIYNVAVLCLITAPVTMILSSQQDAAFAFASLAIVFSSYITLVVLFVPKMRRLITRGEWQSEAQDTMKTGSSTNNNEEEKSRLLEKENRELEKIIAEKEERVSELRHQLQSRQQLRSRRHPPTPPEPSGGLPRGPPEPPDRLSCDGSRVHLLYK
Sequence of UniProt Q9Y572 (whole entry, looked up): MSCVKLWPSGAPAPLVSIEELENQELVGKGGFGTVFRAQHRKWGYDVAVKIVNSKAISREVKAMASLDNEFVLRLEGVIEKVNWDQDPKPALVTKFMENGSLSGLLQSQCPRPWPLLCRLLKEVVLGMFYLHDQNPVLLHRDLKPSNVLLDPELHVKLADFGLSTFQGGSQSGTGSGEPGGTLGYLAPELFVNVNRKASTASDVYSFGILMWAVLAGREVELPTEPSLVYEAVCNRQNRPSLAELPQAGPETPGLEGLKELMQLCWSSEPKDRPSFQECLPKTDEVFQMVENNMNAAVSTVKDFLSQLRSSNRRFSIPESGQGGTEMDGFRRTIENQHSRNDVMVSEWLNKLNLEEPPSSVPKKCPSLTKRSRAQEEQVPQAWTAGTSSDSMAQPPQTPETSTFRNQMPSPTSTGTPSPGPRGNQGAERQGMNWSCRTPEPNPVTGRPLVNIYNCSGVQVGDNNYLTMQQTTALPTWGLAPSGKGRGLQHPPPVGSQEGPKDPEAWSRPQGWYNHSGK
Sequence of UniProt Q96GW9 (whole entry, looked up): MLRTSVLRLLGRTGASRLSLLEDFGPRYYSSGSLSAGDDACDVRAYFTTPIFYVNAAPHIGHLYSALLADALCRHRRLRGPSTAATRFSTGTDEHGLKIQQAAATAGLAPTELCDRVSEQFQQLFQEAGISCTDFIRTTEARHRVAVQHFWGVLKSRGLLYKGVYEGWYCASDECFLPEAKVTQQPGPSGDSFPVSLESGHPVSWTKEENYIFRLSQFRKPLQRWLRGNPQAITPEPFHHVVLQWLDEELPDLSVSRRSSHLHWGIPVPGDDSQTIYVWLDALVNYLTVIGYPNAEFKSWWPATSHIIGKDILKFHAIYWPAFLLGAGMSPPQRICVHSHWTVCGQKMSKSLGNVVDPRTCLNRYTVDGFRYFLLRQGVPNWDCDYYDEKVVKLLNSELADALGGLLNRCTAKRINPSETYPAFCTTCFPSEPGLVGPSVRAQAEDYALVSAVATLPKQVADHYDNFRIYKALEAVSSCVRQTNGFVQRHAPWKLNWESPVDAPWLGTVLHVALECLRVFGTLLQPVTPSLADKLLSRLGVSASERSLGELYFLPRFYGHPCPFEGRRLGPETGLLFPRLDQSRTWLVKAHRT
Sequence of UniProt P28222 (whole entry, looked up): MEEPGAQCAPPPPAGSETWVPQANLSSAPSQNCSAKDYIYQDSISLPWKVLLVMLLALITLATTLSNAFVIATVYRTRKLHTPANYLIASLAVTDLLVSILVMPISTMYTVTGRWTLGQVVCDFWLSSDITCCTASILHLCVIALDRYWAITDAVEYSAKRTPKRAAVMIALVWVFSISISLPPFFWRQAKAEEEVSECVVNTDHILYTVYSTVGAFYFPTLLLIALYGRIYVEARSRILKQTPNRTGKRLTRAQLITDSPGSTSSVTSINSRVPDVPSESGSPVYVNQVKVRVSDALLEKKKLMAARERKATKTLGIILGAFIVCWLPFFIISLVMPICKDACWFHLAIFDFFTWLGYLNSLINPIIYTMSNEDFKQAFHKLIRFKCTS

Structure (SMILES) | target | assay | test system | conditions | scale | measurement | result
CCc1nnc(-c2c(OC)cc(-c3cnc4cc(-c5cnn(C)c5)ccn34)cc2OC)o1 | 5-hydroxytryptamine receptor 1B (HTR1B, Homo sapiens, UniProt P28222) | antagonist radioligand, radioligand binding |  | 10 µM, SafetyScreen44 5-HT1B mean | lower = stronger displacement | remaining binding | 122%
CN(C)[C@H]1C[C@@]23CC[C@@]4(O2)C(=CC[C@]2(C)[C@@H](c5ccc6ccncc6c5)CC[C@H]24)C=C3[C@@H](O)[C@@H]1O | Receptor-interacting serine/threonine-protein kinase 3 (RIPK3, Homo sapiens, UniProt Q9Y572) | ATP probe labelling, inhibitor, KiNativ profiling |  | 0.1 µM |  | inhibition | 3.4%
O=C(NC1CCN(c2ncnc3[nH]cnc23)CC1)c1cccc(NS(=O)(=O)c2ccc(C(F)(F)F)cc2)c1 | Replicase polyprotein 1ab, nsp14 (Human coronavirus OC43, UniProt P0C6X6) | enzyme activity |  | 50 µM |  | inhibition | 86.9%
FC(F)(CNCc1cc(Cl)cc(Cl)c1)CNc1nc2ncccc2[nH]1 | Methionine--tRNA ligase, mitochondrial (MARS2, Homo sapiens, UniProt Q96GW9) | enzyme activity |  |  | relative to: human IC50 over T. brucei IC50 | selectivity ratio | > 26.9
CC(C)[C@H]1NC(=O)C[C@H]2/C=C/CCSSC[C@@H](NC1=O)C(=O)N[C@H](Cc1cccc3ccccc13)C(=O)NCC(=O)O2 | RAF1 human |  |  | 10 µM |  | inhibition | -0.0215%
COc1ccc2c(c1NC(=O)OCc1ccc(NC(=O)C(CCCNC(N)=O)NC(=O)C(NC(=O)CCCCCN3C(=O)CC(SCC(NC(C)=O)C(=O)O)C3=O)C(C)C)cc1)CCC=C2c1cc(OC)c(OC)c(OC)c1 (mixture of isomers) | Cathepsin B (CTSB, Homo sapiens, UniProt P07858) | enzyme activity, substrate, HPLC |  | 1.5 h, pH 5.5, 37 °C, human enzyme, added: CTSB 200 nM |  | payload release | 44%
O=C(Cc1ccc(Cl)c(Cl)c1)N1CCN(CCO)[C@@H]2COC[C@H](N3CCCC3)[C@H]21 (relative stereo) | OPRK1 | β-arrestin-2 recruitment, agonist | U2OS | 1.5 h | relative to: U-69593 maximal response | Emax | 96%
N[C@H](C(=O)N1CCCC1)C1CCN(c2nccc3c(-c4ncc(Cl)cc4Cl)cccc23)CC1 | Protein-arginine deiminase type-2 (PADI2, Homo sapiens, UniProt Q9Y2J8) | enzyme activity |  | 1.536 µM, high-affinity site, added: Ca2+ 1.5 mM |  | kcat | 1.16 s⁻¹ and 1.11 s⁻¹
CN1CCC23c4c5ccc(O)c4CC2C(O)C=CC3C1C5 (racemic) | OPRK1 | receptor activation, agonist, cell-based |  |  |  | Emax | 93 ± 7%
CS(C)(=O)=Nc1ccc(-c2ccc(-c3nc4cc(O[C@@H]5CO[C@H]6[C@@H]5OC[C@H]6O)[nH]c4cc3F)cc2)cc1 | Gamma-aminobutyric acid type B receptor subunit 1 (GABBR1, Homo sapiens, UniProt Q9UBS5) | agonist response, agonist |  | 10 µM | relative to: control agonist | activity | 19.7%
CC[C@H](C)[C@H](NC(=O)[C@H](CCCNC(=N)N)NC(=O)[C@H](CCCNC(=N)N)NC(=O)[C@H](CC(C)C)NC(=O)[C@H](Cc1ccccc1)NC(=O)CNC(=O)CNC(=O)[C@@H](N)Cc1ccc(O)cc1)C(=O)N[C@@H](CCCNC(=N)N)C(=O)N1CCC[C@H]1C(=O)N[C@@H](CCCCN)C(=O)N[C@@H](CC(C)C)C(=O)N[C@@H](CCCCN)C(=O)O | Probable G-protein coupled receptor 139 (GPR139, Homo sapiens, UniProt Q6DWJ6) | G protein activation, agonist, BRET, item: Gα15 | HEK-293T/17 | 40 µM | relative to: GαoA response | Emax | 31.4% and 25.9%
O=C1NC(=O)c2c1c1cc(F)c[n+]3c1c1c2c2cc(O)ccc2[n]1[Ru-4]312([N]=C=S)[S+]3CC[S+]1CC[S+]2CC3 (stereo not drawn) | Abl2 (Mus musculus, UniProt Q4JIM5) | enzyme activity |  | 100 nM, mouse enzyme, added: 10 µM ATP | relative to: untreated | remaining activity | 90%

Some of these lines once more:
Structure (SMILES) | target | assay | test system | conditions | scale | measurement | result
CN1CCC23c4c5ccc(O)c4CC2C(O)C=CC3C1C5 (racemic) | OPRK1 | receptor activation, agonist, cell-based |  |  |  | Emax | 93 ± 7%
CS(C)(=O)=Nc1ccc(-c2ccc(-c3nc4cc(O[C@@H]5CO[C@H]6[C@@H]5OC[C@H]6O)[nH]c4cc3F)cc2)cc1 | Gamma-aminobutyric acid type B receptor subunit 1 (GABBR1, Homo sapiens, UniProt Q9UBS5) | agonist response, agonist |  | 10 µM | relative to: control agonist | activity | 19.7%
